Assay results gathered from unrelated publications.
A part holds a random share of what one study measured.
UniProt O15294, sequence (whole entry, looked up): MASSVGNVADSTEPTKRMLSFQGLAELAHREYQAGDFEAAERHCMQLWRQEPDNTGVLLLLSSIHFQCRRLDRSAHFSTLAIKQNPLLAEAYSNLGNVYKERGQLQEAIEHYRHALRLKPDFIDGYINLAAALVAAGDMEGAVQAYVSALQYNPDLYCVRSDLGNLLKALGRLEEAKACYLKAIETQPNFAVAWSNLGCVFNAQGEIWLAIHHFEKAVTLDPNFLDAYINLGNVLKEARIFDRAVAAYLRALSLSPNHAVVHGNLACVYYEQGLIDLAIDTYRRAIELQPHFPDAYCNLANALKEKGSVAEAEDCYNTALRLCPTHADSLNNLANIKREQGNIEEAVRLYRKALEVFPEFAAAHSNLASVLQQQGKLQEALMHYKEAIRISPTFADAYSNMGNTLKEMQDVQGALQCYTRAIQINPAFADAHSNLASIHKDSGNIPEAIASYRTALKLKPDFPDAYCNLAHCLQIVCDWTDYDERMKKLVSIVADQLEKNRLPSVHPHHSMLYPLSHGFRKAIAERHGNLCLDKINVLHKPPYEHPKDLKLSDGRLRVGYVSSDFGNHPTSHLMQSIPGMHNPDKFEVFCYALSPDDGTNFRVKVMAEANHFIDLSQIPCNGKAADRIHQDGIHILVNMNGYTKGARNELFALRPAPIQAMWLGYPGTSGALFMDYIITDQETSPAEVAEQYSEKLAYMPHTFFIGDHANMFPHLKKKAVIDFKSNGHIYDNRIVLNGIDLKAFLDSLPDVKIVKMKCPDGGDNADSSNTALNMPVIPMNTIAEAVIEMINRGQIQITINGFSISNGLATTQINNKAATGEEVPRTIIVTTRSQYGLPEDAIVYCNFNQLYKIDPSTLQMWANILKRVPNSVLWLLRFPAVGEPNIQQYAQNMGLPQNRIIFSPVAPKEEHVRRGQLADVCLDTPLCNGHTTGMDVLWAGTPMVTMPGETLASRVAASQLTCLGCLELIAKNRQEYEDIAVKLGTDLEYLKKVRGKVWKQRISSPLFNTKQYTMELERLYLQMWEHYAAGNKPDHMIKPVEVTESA

Series 1 — method: RNA Bind-n-Seq; molecule type: RNA; sample: in vitro; concentration: 1 µM; notes: whole 134-nt RNA, ends assumed; together with: 150 mM KCl; relative to: input library; reading: higher = stronger binding; measurement: log2 enrichment
Target: Ras GTPase-activating protein-binding protein 1, RRM domain (G3BP1, Homo sapiens, UniProt Q13283)
UniProt Q13283, sequence (whole entry, looked up): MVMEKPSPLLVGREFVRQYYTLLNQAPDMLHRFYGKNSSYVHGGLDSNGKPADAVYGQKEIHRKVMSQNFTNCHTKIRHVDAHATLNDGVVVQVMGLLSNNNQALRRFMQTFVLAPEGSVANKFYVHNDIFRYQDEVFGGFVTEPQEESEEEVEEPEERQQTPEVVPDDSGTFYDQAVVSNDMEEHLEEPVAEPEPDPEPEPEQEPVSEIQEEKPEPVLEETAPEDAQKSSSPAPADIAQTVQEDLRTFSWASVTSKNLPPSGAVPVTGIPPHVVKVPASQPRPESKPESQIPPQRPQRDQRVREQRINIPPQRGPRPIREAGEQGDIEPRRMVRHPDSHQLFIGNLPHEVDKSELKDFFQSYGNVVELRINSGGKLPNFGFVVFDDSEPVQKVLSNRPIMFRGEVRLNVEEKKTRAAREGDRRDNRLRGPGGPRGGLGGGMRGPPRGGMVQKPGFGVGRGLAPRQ
Constant ends, left off below: GGGAGUUCUACAGUCCGACGAUC … UGGAAUUCUCGGGUGUCAAGG
Strand = UCCUGUGCUACACAUCGUAUGUACCGAAUCGGGGUUUUUGGGUUUUUGGGGUUUUUGGGAAAGUAUUAUGUUACGCCGUUCGGAUCUGCA; value = -0.0123
Strand = GUCCUGUGCUACACAUCGUAUGUACCGAAUCAAAUUUUUUUAAAUUUAAAUUUUUAAAAAAGUAUUAUGUUACGCCGUUCGGAUCUGCAC; value = -0.607
Strand = UCAAGUCCUGUGCUACACAUCGUAUGUACCGAAUCGGGAAGGGAAGGGAAGGGGAAAGUAUUAUGUUACGCCGUUCGGAUCUGCACUUCC; value = 1.11
Strand = UAACUUUAGAGGAGGAUCUGAUGGAUAUGGCAGUGGACGUGGAUUUGGGGAUGGCUAUAAUGGGUAUGGAGGAGGACCUGGAAGUGGCAA; value = -0.247
Strand = UCCUGUGCUACACAUCGUAUGUACCGAAUCGGAAAAAAAGGUUUUUUUGGUUUUUUUGGAAAGUAUUAUGUUACGCCGUUCGGAUCUGCA; value = -0.257
Strand = GCAGGAAGUAAAAACAAAUGGAAAUGCAUCGGAUAGUGGCAGGGGUGGGGGUUGCUAAGGAAAGGGUGGGAUGGGAGUGGGUAAAGAGUU; value = 1.26
Strand = UCAAGGGUUAUACACGGAAAGCCGCUGCGCUGGAAGCGAUGAAGGACUACACCAAAGCCAUGGAUGUGUACCAGAAGGCGCUAGACCUGG; value = -0.266
Strand = CACAGACAACACGCACCCACACAGACACAGAGGGAAGGGGUUGGGAUGGGGACAGGGUGCACAGCAGGGCGGGGAAGGACCCCAGCCCCU; value = -0.189

Series 2 — method: RNA Bind-n-Seq; molecule type: RNA; sample: in vitro; concentration: not given; notes: 4-mer, random 30-nt RNA, single round; together with: RocA, ADP, phosphate; relative to: input library; reading: higher = stronger binding; measurement: 4-mer enrichment
Target: ATP-dependent RNA helicase DDX3X, helicase core (DDX3X, Homo sapiens, UniProt O00571, residues 132-607)
UniProt O00571, sequence (132-607, looked up): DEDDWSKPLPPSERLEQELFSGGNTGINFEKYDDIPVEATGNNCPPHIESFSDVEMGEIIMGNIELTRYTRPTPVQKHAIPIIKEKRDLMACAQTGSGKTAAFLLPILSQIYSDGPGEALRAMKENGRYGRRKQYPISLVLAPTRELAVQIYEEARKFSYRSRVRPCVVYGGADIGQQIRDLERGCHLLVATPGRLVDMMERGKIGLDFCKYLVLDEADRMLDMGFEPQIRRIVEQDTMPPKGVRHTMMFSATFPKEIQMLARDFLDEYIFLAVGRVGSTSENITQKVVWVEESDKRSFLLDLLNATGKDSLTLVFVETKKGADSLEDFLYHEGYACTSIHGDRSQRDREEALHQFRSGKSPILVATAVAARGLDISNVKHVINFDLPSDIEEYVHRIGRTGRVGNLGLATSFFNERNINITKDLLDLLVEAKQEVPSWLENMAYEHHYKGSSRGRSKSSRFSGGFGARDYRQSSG
Strand = AUUU; value = 0.939 fold
Strand = UACU; value = 0.684 fold
Strand = ACCA; value = 0.735 fold
Strand = AUGA; value = 1.39 fold
Strand = GAUU; value = 0.926 fold
Strand = GGUC; value = 0.927 fold
Strand = CGCU; value = 0.637 fold
Strand = GGAG; value = 2.67 fold

Single results of other studies
Molecule = CCT4 (Homo sapiens, UniProt P50991); tested on = CCT2 (Homo sapiens, UniProt P78371); assay = cross-linking MS; conditions = hits only; measurement = interaction screen; value = cross-linked
Molecule = HVPRQHYAMYPHQYR; tested on = OGT (Homo sapiens, UniProt O15294); assay = binding, phage display NGS; system = peptide; conditions = concentration not given, panning round 2; how to read = relative to: input library; measurement = enrichment fold change; value = 5.4
Molecule = GTF2F2 (Homo sapiens, UniProt P13984); tested on = GTF2F1 (Homo sapiens, UniProt P35269); assay = cross-linking MS; conditions = hits only; measurement = interaction screen; value = cross-linked
Molecule = MPHOSPH8 (Homo sapiens, UniProt Q99549); tested on = TASOR (Homo sapiens, UniProt Q9UK61); assay = cross-linking MS; conditions = hits only; measurement = interaction screen; value = cross-linked
Molecule = SPTBN1 (Homo sapiens, UniProt Q01082); tested on = PCDHGA10 (Homo sapiens, UniProt Q9Y5H3); assay = cross-linking MS; system = cell fractions; conditions = together with: DHSO; measurement = cross-linked residues; value = E1266 to D132

A few entries again (series 2):
Strand = CGCU; value = 0.637 fold
Strand = AUUU; value = 0.939 fold
Strand = GGUC; value = 0.927 fold
